# Experimental data collected from several papers.
# Compare with care: the assays were run in different laboratories. ± marks the error that the study gave.
# CYP2D6: Cytochrome P450 2D6 (CYP2D6, Homo sapiens, UniProt P10635)
# UniProt P10635, sequence (whole entry, looked up): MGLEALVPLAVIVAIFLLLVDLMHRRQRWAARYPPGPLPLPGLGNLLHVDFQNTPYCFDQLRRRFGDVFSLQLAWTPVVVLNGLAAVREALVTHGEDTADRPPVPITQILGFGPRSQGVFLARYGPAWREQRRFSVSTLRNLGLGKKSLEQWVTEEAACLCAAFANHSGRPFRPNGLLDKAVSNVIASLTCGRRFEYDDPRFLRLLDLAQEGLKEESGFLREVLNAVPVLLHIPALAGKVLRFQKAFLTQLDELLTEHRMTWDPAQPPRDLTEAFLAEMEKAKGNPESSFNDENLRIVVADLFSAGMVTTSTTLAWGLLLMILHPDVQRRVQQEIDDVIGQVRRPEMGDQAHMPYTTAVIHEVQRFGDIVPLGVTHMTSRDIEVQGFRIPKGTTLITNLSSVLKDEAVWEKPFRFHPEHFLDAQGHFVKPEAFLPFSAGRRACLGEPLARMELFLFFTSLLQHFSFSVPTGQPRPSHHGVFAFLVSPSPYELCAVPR
# SLC47A1: Multidrug and toxin extrusion protein 1 (SLC47A1, Homo sapiens, UniProt Q96FL8)
# UniProt Q96FL8, sequence (whole entry, looked up): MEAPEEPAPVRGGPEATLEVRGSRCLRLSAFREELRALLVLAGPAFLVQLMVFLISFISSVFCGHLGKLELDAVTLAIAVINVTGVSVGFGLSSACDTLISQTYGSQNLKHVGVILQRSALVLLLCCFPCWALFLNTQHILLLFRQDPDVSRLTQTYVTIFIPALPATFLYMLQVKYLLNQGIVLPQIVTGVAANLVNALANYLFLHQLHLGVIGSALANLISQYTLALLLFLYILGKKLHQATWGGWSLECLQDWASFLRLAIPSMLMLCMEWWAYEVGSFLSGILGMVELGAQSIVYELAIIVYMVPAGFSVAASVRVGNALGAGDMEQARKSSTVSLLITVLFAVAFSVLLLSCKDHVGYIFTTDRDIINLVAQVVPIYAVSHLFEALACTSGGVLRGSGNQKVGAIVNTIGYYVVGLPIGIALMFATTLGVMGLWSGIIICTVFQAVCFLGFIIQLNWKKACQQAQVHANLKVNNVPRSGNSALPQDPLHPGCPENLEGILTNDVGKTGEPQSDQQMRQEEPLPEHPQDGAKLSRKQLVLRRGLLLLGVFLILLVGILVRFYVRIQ
# CYP1A2: Cytochrome P450 1A2 (CYP1A2, Homo sapiens, UniProt P05177)
# UniProt P05177, sequence (whole entry, looked up): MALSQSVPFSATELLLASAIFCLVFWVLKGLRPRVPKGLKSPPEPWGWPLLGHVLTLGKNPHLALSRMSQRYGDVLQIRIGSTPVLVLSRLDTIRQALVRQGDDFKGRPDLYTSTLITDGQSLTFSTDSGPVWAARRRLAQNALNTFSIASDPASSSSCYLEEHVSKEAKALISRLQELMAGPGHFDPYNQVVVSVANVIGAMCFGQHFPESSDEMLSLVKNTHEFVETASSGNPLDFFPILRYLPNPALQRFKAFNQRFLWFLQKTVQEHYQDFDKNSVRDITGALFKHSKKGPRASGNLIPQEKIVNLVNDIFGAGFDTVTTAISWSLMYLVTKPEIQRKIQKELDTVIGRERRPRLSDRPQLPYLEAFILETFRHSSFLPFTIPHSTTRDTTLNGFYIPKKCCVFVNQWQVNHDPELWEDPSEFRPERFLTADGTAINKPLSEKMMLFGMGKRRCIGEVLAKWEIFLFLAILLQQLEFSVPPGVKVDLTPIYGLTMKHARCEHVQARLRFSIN
# KCNH2: Voltage-gated inwardly rectifying potassium channel KCNH2 (KCNH2, Homo sapiens, UniProt Q12809)
# UniProt Q12809, sequence (whole entry, looked up): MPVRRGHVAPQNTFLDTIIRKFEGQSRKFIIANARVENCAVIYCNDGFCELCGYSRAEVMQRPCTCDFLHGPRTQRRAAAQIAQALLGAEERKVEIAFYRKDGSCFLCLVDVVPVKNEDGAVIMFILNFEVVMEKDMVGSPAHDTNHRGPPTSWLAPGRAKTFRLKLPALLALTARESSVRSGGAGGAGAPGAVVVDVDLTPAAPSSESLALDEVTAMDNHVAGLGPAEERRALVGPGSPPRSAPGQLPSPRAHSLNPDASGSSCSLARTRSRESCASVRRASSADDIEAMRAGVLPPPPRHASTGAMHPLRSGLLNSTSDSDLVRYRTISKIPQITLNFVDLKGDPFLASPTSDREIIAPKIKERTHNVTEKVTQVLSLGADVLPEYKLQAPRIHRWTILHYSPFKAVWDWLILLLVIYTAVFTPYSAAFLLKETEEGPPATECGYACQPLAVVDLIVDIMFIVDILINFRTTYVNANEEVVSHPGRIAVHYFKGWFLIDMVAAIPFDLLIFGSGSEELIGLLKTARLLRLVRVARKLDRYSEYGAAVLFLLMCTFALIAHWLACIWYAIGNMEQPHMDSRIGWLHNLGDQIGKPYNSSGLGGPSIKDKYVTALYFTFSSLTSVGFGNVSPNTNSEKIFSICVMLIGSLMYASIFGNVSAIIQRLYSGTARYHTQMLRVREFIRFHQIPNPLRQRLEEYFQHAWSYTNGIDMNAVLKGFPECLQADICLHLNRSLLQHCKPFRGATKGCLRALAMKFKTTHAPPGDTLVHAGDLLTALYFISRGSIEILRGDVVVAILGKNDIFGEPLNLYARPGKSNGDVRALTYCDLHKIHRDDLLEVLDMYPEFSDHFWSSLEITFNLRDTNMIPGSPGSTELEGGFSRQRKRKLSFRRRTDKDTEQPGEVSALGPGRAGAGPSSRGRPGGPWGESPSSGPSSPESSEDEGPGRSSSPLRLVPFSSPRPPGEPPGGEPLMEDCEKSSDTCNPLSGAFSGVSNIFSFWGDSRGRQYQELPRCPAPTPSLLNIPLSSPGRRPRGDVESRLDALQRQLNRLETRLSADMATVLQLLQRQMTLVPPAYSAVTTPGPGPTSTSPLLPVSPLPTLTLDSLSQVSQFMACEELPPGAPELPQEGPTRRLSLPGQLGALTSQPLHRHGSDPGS
# UniProt P46059, sequence (whole entry, looked up): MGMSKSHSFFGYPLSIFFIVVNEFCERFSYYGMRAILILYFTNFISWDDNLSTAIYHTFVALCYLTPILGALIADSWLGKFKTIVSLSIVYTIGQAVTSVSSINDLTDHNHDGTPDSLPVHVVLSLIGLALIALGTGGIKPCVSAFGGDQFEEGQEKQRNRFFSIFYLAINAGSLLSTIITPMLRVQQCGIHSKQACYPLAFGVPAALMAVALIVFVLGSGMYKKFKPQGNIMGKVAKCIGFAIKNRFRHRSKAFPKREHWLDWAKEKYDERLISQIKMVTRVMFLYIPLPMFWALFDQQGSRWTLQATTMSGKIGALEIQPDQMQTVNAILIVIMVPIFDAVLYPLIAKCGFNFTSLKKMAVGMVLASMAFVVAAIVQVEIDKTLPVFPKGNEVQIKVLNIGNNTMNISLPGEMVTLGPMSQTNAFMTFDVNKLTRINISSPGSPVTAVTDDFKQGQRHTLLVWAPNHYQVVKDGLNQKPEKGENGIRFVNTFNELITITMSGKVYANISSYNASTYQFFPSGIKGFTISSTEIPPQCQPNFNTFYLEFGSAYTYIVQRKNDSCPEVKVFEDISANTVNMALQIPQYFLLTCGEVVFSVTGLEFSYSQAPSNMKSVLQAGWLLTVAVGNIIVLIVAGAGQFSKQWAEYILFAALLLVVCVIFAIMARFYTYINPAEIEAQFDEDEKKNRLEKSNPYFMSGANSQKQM
# UniProt O14980, sequence (whole entry, looked up): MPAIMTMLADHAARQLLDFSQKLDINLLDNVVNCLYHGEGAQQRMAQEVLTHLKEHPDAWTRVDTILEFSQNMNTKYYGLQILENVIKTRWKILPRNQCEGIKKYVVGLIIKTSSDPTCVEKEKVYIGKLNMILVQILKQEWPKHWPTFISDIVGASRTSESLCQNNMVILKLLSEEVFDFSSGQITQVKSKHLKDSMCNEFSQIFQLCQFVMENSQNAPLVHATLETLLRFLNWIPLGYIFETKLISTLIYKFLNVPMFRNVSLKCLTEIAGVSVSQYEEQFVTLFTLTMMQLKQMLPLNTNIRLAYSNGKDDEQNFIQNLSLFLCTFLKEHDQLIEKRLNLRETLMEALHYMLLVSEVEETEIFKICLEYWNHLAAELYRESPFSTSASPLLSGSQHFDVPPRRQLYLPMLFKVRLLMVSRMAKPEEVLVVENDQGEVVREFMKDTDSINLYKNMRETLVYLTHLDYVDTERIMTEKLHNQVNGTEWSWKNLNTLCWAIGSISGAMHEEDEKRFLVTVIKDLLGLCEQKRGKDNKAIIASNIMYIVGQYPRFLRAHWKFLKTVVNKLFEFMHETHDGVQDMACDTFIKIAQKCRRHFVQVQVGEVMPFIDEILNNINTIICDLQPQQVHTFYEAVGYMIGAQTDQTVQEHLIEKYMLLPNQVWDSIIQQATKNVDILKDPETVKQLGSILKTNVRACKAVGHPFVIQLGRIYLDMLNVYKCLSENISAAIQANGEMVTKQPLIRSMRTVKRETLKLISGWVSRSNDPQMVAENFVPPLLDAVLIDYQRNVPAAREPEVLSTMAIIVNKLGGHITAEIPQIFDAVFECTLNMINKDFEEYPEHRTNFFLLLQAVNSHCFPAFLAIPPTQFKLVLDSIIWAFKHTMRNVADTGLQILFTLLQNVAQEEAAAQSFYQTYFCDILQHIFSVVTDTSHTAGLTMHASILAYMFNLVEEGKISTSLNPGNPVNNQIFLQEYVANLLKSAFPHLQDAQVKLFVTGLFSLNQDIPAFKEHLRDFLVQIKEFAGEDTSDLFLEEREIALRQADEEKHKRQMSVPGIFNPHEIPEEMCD
# UniProt P04799, sequence (whole entry, looked up): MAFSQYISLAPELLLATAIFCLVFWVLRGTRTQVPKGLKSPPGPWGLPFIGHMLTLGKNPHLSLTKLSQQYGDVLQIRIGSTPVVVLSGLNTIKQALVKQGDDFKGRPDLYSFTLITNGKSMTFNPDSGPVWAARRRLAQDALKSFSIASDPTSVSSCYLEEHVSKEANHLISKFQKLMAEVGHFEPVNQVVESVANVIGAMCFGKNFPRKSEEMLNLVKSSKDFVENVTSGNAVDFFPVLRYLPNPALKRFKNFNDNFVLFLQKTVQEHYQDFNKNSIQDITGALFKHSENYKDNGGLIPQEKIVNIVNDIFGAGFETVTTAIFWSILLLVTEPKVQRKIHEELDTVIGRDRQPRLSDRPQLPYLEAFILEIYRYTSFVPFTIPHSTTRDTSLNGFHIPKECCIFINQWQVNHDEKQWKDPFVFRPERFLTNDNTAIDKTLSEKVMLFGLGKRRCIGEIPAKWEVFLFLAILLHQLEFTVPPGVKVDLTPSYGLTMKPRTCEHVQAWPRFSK
Structure (SMILES),target,test,system,conditions,how to read,quantity,value
C[C@H](NC(=O)[C@H](Cc1cnc[nH]1)NC(=O)[C@H](CO)NC(=O)[C@@H](N)CC(=O)O)C(=O)N[C@@H](CCCCN)C(=O)N[C@@H](CCCNC(=N)N)C(=O)N[C@@H](Cc1cnc[nH]1)C(=O)N[C@@H](Cc1cnc[nH]1)C(=O)NCC(=O)N[C@@H](Cc1ccc(O)cc1)C(=O)N[C@@H](CCCCN)C(=O)N[C@@H](CCCNC(=N)N)C(=O)N[C@@H](CCCCN)C(=O)N[C@@H](Cc1ccccc1)C(=O)N[C@@H](Cc1cnc[nH]1)C(=O)N[C@@H](CCC(=O)O)C(=O)N[C@@H](CCCCN)C(=O)N[C@@H](Cc1cnc[nH]1)C(=O)N[C@@H](Cc1cnc[nH]1)C(=O)N[C@@H](CO)C(=O)N[C@@H](Cc1cnc[nH]1)C(=O)N[C@@H](CCCNC(=N)N)C(=O)NCC(=O)N[C@@H](Cc1ccc(O)cc1)C(=O)O,"Secreted aspartic protease 1 (SAP1, Candida albicans, UniProt P0CY27)","proteolytic degradation, gel densitometry",,"150 µg/mL, 2 h, pH 7.4, added: SAP1 5.0 µg/mL",,intact peptide remaining,37%
CS(=O)(=O)Nc1ncn(-c2cc(F)c(COc3ccc(OS(=O)(=O)F)cc3)c(F)c2)n1,CYP2D6,,,,,IC50,> 50000 nM
CC1(C)C(C=C(Cl)Cl)C1C(=O)OC(C#N)c1ccc(F)c(Oc2ccccc2)c1 (stereo not shown),human CYP2C9,IVIVE from expressed enzymes,"human, liver, in vivo scaled","0.1 µM, age-specific",,enzyme contribution to CLint,1.99%
CC[C@H]1OC(=O)[C@H](C)[C@@H](O[C@H]2C[C@@](C)(OC)[C@@H](O)[C@H](C)O2)[C@H](C)[C@@H](O[C@@H]2O[C@H](C)C[C@H](N(C)C)[C@H]2O)[C@](C)(O)C[C@@H](C)CN(C)[C@H](C)[C@@H](O)[C@]1(C)O,SLC47A1,"transport, inhibitor",,"50 µM, added: metformin",,inhibition,12.8%
O=C1Cc2cc(CCN3CCN(c4nsc5ccccc45)CC3)c(Cl)cc2N1,CYP2D6,"enzyme activity, inhibitor",human liver microsomes,"10 µM, pH 7.4, added: dextromethorphan",,inhibition,12%
CC1(C)C(/C=C(\Cl)C(F)(F)F)C1C(=O)OC(C#N)c1cccc(Oc2ccccc2)c1 (stereo not shown),human CYP2C9,IVIVE from expressed enzymes,"human, liver, in vivo scaled",age-specific,,enzyme contribution to CLint,0.46%
N=c1c2c(-c3ccccc3)c(-c3ccccc3)n(Cc3ccccc3)c2ncn1[C@H]1CC[C@H](O)CC1,CYP1A2,recombinant CYP1A2,,"25 min, pH 7.4, added: NADPH",,remaining compound,99.5%
O=c1ccc2ncc(=O)n3c2n1C[C@H]3CN1CCC(NCc2cc3c(cn2)OCCC3)CC1,SLC47A1,,SLC47A1-overexpressing cells,,baseline: control cells,uptake ratio,5 fold
CC1(C)SC2C(NC(=O)C(NC(=O)C3=C(O)C(Cc4ccsc4)NC3=O)c3ccccc3)C(=O)N2C1C(=O)O (stereo not shown),Fe(III),"binding, EDTA competition absorbance",,added: EDTA 1.969 mM,,equilibrium constant,9.12e+06 M⁻²
COc1ccc(CCC2CCCC(CCc3ccc(OC)cc3)N2C[C@@H](O)CO)cc1 (stereo in doubt),KCNH2,"binding, radioligand displacement",HEK293 cell membranes,added: [3H]dofetilide 5 nM,,IC50,810 ± 110 nM
C[C@H]1CN(c2n[nH]c3nc(N[C@H]4CC[C@H](NS(=O)(=O)CCC(F)(F)F)CC4)ncc23)CCO1,"Exportin-1 (XPO1, Homo sapiens, UniProt O14980)","inhibitor, Kinobeads competition profiling",,0.032 µM,baseline: vehicle,relative abundance,1.06
CCOC(=O)C1=C[C@@H](OC(CC)CC)[C@H](NC(C)=O)[C@@H](N)C1,SLC47A1,"transport, inhibitor",transiently transfected cells,"100 µM, 10 (unit not given), added: metformin",,inhibition,36.5%
CC[C@H](C)[C@H](NC(=O)[C@@H](N)CC(N)=O)C(=O)N1CCC[C@H]1C(=O)N1CCC[C@H]1C(=O)N[C@@H](CC(C)C)C(=O)N[C@H](C(=O)N[C@@H](CCC(N)=O)C(=O)N[C@H](C(=O)N1CCC[C@H]1C(=O)N[C@H](C(=O)N[C@H](C(=O)N[C@H](C(=O)N1CCC[C@H]1C(=O)N1CCC[C@H]1C(=O)N[C@@H](Cc1ccccc1)C(=O)N[C@@H](CC(C)C)C(=O)N[C@@H](CCC(N)=O)C(=O)N1CCC[C@H]1C(=O)N[C@@H](CCC(=O)O)C(=O)O)C(C)C)C(C)C)C(C)C)[C@@H](C)O)[C@@H](C)O,"Solute carrier family 15 member 1 (SLC15A1, Homo sapiens, UniProt P46059)",,HEK293 transfected with SLC15A1,"10 µM, 5 min, 37 °C",baseline: mock-transfected cells,uptake increase,54.5 ± 14.6%
CCCC[C@H]1C(=O)N(C)[C@@H](CCCC)C(=O)N[C@@H](CCCCNC(=O)CN2CCN(CC(=O)O)CCN(CC(=O)O)CC2)C(=O)N[C@H](C(=O)NCC(N)=O)CSCC(=O)N[C@@H](Cc2ccc(O)cc2)C(=O)N(C)[C@@H](C)C(=O)N[C@@H](CC(N)=O)C(=O)N2CCC[C@H]2C(=O)N[C@@H](Cc2c[nH]cn2)C(=O)N[C@@H](CCC(=O)O)C(=O)N2C[C@H](O)C[C@H]2C(=O)N[C@@H](Cc2c[nH]c3ccccc23)C(=O)N[C@@H](CO)C(=O)N[C@@H](Cc2cn(CC(=O)O)c3ccccc23)C(=O)N1C [gallium-68 labelled],"Programmed cell death 1 ligand 1 (CD274, Homo sapiens, UniProt Q9NZQ7)",PET,"hu-CD34+ NOG-EXL mouse, U-87 MG xenograft",baseline,,tumour uptake,6.83 %ID/g
Cn1nccc1[C@]1(CNC(=O)c2ccc(F)c(F)c2-c2ccc(C(F)(F)F)cc2)NC(=O)NC1=O,CYP2D6,,human liver microsomes,added: dextromethorphan,no inhibition up to value,IC50,> 20000 nM
Nc1ccc2c(c1)CN1C(=O)c3ccccc3C1=N2,"Cytochrome P450 1A2 (Cyp1a2, Rattus norvegicus, UniProt P04799)",substrate,recombinant rat CYP1A2 microsomes,"10 µM, 120 min, added: NADPH",,metabolised fraction,31%
O=C1CCC(N2C(=O)c3ccccc3C2=O)C(=O)N1 (stereo not shown),SLC47A1,"transport, inhibitor",transiently transfected cells,"100 µM, 10 (unit not given), added: metformin",,inhibition,38.9%
CC(C)CC(=O)OC[C@H]1O[C@@](C#N)(c2ccc3c(N)ncnn23)[C@H](O)[C@@H]1O,CYP2D6,metabolic stability,recombinant enzyme,1 µM,,intrinsic clearance,0 µL/min/pmol
CCOC(=O)c1c(CSc2ccccc2)n(C)c2cc(Br)c(O)c(CN(C)C)c12,SLC47A1,"transport, inhibitor",transiently transfected cells,"100 µM, 10 (unit not given), added: metformin",,inhibition,116%
O=C(Nc1cccnn1)N1CCC(=Cc2cccc(Oc3ccc(C(F)(F)F)cn3)c2)CC1,KCNH2,radioligand binding,,"10 µM, human channel, added: [3H]astemizole",,inhibition of binding,70%
COc1cc2c(c(OC)c1OC)-c1ccc(OC)c(=O)cc1[C@@H](NC(C)=O)CC2,SLC47A1,"transport, inhibitor",transiently transfected cells,"100 µM, 10 (unit not given), added: metformin",,inhibition,33.3%
O=C/C=C/c1ccccc1,CYP1A2,"inhibitor, high-throughput CYP450 kit",human,,,IC50,21.5 ± 1.5 µg/mL
NC(=O)c1ncn([C@@H]2O[C@H](CO)[C@@H](O)[C@H]2O)n1,SLC47A1,"transport, inhibitor",transiently transfected cells,"100 µM, 10 (unit not given), added: metformin",,inhibition,-4.5%
CC(C)[C@H](C(=O)O[C@H](C#N)c1cccc(Oc2ccccc2)c1)c1ccc(Cl)cc1,human CYP2C9,IVIVE from expressed enzymes,"human, liver, in vivo scaled",age-specific,,enzyme contribution to CLint,19.3%
CCN(CCO)CCCC(C)Nc1ccnc2cc(Cl)ccc12 (stereo not shown),SLC47A1,"transport, inhibitor",transiently transfected cells,"100 µM, 10 (unit not given), added: metformin",,inhibition,108%
CC[C@H](C)[C@H](NC(=O)[C@H](Cc1ccccc1)NC(=O)[C@H](CCC(=O)O)NC(=O)[C@H](CCCNC(=N)N)NC(=O)[C@H](C)NC(=O)[C@H](C)NC(=O)[C@H](CCC(N)=O)NC(=O)[C@H](CCC(=O)O)NC(=O)[C@H](CCC(=O)O)NC(=O)[C@H](CC(C)C)NC(=O)[C@H](Cc1ccc(O)cc1)NC(=O)[C@H](CO)NC(=O)[C@H](CO)NC(=O)[C@@H](NC(=O)[C@H](CC(=O)O)NC(=O)[C@H](CO)NC(=O)[C@@H](NC(=O)[C@H](Cc1ccccc1)NC(=O)[C@@H](NC(=O)CNC(=O)[C@H](CCC(=O)O)NC(=O)[C@H](C)NC(=O)CCc1cnc[nH]1)[C@@H](C)O)[C@@H](C)O)C(C)C)C(=O)N[C@@H](C)C(=O)N[C@@H](Cc1c[nH]c2ccccc12)C(=O)N[C@@H](CC(C)C)C(=O)N[C@H](C(=O)N[C@@H](CCCNC(=N)N)C(=O)NCC(=O)N[C@@H](CCCNC(=N)N)C(=O)N[C@@H](CCCCNC(=O)COCCOCCNC(=O)COCCOCCNC(=O)CC[C@H](NC(=O)CCCCCCCCCCCCCCCCC(=O)O)C(=O)O)C(=O)NCC(=O)NCC(=O)N[C@@H](CO)C(=O)N[C@@H](CCSC)C(=O)N[C@H](C(=O)N[C@@H](CCCCNc1c(NCCCCCN(O)C(=O)CCC(=O)NCCCCCN(O)C(=O)CCC(=O)NCCCCCN(O)C(C)=O)c(=O)c1=O)C(=O)O)C(C)C)C(C)C,"Glucagon-like peptide 1 receptor (GLP1R, Homo sapiens, UniProt P43220)","cAMP reporter gene, agonist, CRE luciferase",BHK,"without Zr, 0% HSA",,EC50,0.0028 nM
NC(=O)c1nc(F)c[nH]c1=O,SLC47A1,"transport, inhibitor",transiently transfected cells,"100 µM, 10 (unit not given), added: metformin",,inhibition,19.1%
O=C(Nc1cnccc1Cl)N1CCN(Cc2ccc3c(c2)OC(F)(F)O3)CC1,KCNH2,radioligand binding,,"50 µM, human channel, added: [3H]astemizole",,inhibition of binding,69%

# For quick reference, copied from above:
Structure (SMILES),target,test,system,conditions,how to read,quantity,value
N=c1c2c(-c3ccccc3)c(-c3ccccc3)n(Cc3ccccc3)c2ncn1[C@H]1CC[C@H](O)CC1,CYP1A2,recombinant CYP1A2,,"25 min, pH 7.4, added: NADPH",,remaining compound,99.5%
O=C(Nc1cccnn1)N1CCC(=Cc2cccc(Oc3ccc(C(F)(F)F)cn3)c2)CC1,KCNH2,radioligand binding,,"10 µM, human channel, added: [3H]astemizole",,inhibition of binding,70%
CC1(C)C(/C=C(\Cl)C(F)(F)F)C1C(=O)OC(C#N)c1cccc(Oc2ccccc2)c1 (stereo not shown),human CYP2C9,IVIVE from expressed enzymes,"human, liver, in vivo scaled",age-specific,,enzyme contribution to CLint,0.46%
